Measured values pooled from the literature.
Compare with care: the assays were run in different laboratories. “And” joins repeats or separate records; there may be more than shown.
Organism: Staphylococcus aureus

Compound = NCCCC[C@@H]1NC(=O)[C@@H](Cc2c[nH]c3ccccc23)NC(=O)[C@H](Cc2c[nH]c3ccccc23)NC(=O)[C@@H](N)CSCc2ccc(cc2)CSC[C@@H](C(N)=O)NC(=O)[C@@H](Cc2c[nH]c3ccccc23)NC(=O)[C@H](Cc2c[nH]c3ccccc23)NC(=O)[C@@H](Cc2c[nH]c3ccccc23)NC(=O)[C@H](CCCCN)NC(=O)[C@@H](CCCCN)NC(=O)[C@H](CCCCN)NC(=O)[C@@H](CCCCN)NC1=O; system = Newman MSSA; MIC = 32 µg/mL
Compound = CC[C@H](C)[C@H](NC(=O)[C@H](CCCCN)NC(=O)[C@H](CCCCN)NC(=O)[C@H](Cc1c[nH]c2ccccc12)NC(=O)[C@H](CC(N)=O)NC(=O)[C@@H](N)C(C)C)C(=O)N[C@@H](CC(C)C)C(=O)NCC(=O)N[C@@H](CCCCN)C(=O)N[C@H](C(=O)N[C@H](C(=O)N[C@@H](CCCCN)C(=O)N[C@H](C(=O)N[C@H](C(=O)N[C@@H](CCCCN)C(N)=O)C(C)C)C(C)C)[C@@H](C)CC)[C@@H](C)CC; system = MSSA RN 4220, RPMI medium; conditions = 24 h, 37 °C; MIC = 1.9 µM
Compound = CN[C@H](CC(C)C)C(=O)N[C@H]1C(=O)N[C@@H](CC(N)=O)C(=O)N[C@H]2C(=O)N[C@H]3C(=O)N[C@H](C(=O)N[C@H](C(=O)O)c4cc(O)cc(O)c4-c4cc3ccc4O)[C@H](O)c3ccc(c(Cl)c3)Oc3cc2cc(c3O[C@@H]2O[C@H](CO)[C@@H](O)[C@H](O)[C@H]2O[C@H]2C[C@](C)(NCc3ccc(OCc4cn(CCOCCOCCOCCC(=O)N[C@H](C(=O)N[C@@H](CCN)C(=O)N[C@H]5CCNC(=O)[C@H]([C@@H](C)O)NC(=O)[C@H](CCN)NC(=O)[C@H](CCN)NC(=O)[C@H](CC(C)C)NC(=O)[C@@H](CC(C)C)NC(=O)[C@H](CCN)NC5=O)[C@@H](C)O)nn4)c(OC)c3)[C@H](O)[C@H](C)O2)Oc2ccc(cc2Cl)[C@H]1O; assay = broth microdilution; system = MSSA ATCC 29213; conditions = 20 to 24 h, 37 °C, 0.002% polysorbate 80; MIC = 0.5 µg/mL
Compound = CN[C@@H]1[C@H](O)[C@H](NC)[C@H]2O[C@]3(O)[C@H](O[C@@H]2[C@H]1O)O[C@H](C)C[C@@]3(O)CNCc1ccc(F)cc1; system = MRSA NRS70; MIC = 50 µg/mL
Compound = CC[C@H](C)[C@H](NC(=O)[C@H](CC(C)C)NC(=O)[C@H](C)NC(=O)[C@H](CO)NC(=O)[C@H](CCCNC(=N)N)NC(=O)[C@@H](N)CO)C(=O)N[C@H](C(=O)N[C@@H](Cc1c[nH]cn1)C(=O)N[C@@H](CCC(N)=O)C(=O)N[C@@H](CCCNC(=N)N)C(=O)N[C@@H](CC(C)C)C(=O)N[C@@H](Cc1ccccc1)C(N)=O)C(C)C; assay = broth microdilution; system = Mueller Hinton broth; MIC = > 400 µg/mL
Compound = O=C(O)c1ccc(-n2cc(/C=N/Nc3cccc(Cl)c3F)c(-c3ccc4ccccc4c3)n2)cc1; assay = microbial growth; system = ATCC33591; conditions = drug-resistant strain; MIC = 12.5 µg/mL
Compound = CC(C)C[C@H](NC(=O)[C@H](CC(C)C)NC(=O)[C@H](CCCCN)NC(=O)CNC(=O)[C@H](CC(C)C)NC(=O)[C@H](CC(C)C)NC(=O)[C@H](CO)NC(=O)[C@H](CC(C)C)NC(=O)[C@H](CC(C)C)NC(=O)[C@@H]1CCCN1C(=O)[C@H](CC(C)C)NC(=O)[C@H](CC(C)C)NC(=O)CN)C(N)=O; assay = broth microdilution; system = USA300 MRSA; MIC = 1.56 µM
Compound = COc1ccc2ccc3c(c2c1)C=[N+]1C2CCCCC2[N+]2=Cc4c(C)cccc4[O][Au-]21[O]3.F[P-](F)(F)(F)(F)F (stereo not shown); assay = bacterial growth, broth microdilution; system = vancomycin-intermediate; conditions = 24 h; MIC = 20 µM
Compound = CC[C@H](C)[C@@H]1NC(=O)[C@@H](CN)NC(=O)CNC(=O)[C@H](CC(=O)O)NC(=O)CNC(=O)[C@H](CC(=O)O)NC(=O)CNC(=O)[C@H]2CCCCN2C(=O)[C@@H](NC(=O)[C@H](CC(=O)O)NC(=O)/C=C/CCCCCCCCCC(C)C)CNC(=O)[C@@H]2CCCN2C1=O; system = MRSA USA300; conditions = 16 h, 37 °C, with: Ca2+ 10 mM; MIC = 4 µg/mL
Compound = COc1cc2c(=O)c(C(=O)NCCNCCO)cn(Cc3ccccc3)c2cc1OCc1cccc(Cl)c1; system = ATCC 43300 MRSA; scale = ≥80% growth inhibition; MIC = > 32 µg/mL
Compound = CC[C@H](C)[C@H](N)C1=N[C@H](C(=O)N[C@@H](CC(C)C)C(=O)N[C@H](CCC(=O)O)C(=O)N[C@@H](Cc2ccccc2)C(=O)N[C@H]2CCCCNC(=O)[C@H](CC(N)=O)NC(=O)[C@@H](CC(=O)O)NC(=O)[C@H](Cc3c[nH]cn3)NC(=O)[C@@H](Cc3ccccc3)NC(=O)[C@H]([C@@H](C)CC)NC(=O)[C@@H](CCCN)NC2=O)CS1; assay = broth microdilution; system = ATCC 29213, LB medium; conditions = 18 h, 37 °C, with: ZnSO4 0.3 mM; MIC = 4 µg/mL
Compound = CC[C@@H](C)[C@H](NC(=O)[C@H](C)NC(=O)[C@H](CCCCN)NC(=O)[C@H](CC(C)C)NC(=O)[C@H](C)NC(=O)[C@@H](NC(=O)[C@H](Cc1c[nH]cn1)NC(=O)[C@H](CC(C)C)NC(=O)[C@@H](NC(=O)[C@@H](NC(=O)[C@H](CCCCN)NC(=O)[C@H](CCCCN)NC(=O)[C@H](C)NC(=O)[C@H](CO)NC(=O)[C@H](CCCCN)NC(=O)[C@H](Cc1ccccc1)NC(=O)[C@@H](NC(=O)[C@H](CCCCN)NC(=O)[C@H](CC(C)C)NC(=O)[C@H](Cc1ccccc1)NC(=O)[C@H](CO)NC(=O)[C@H](CCCCN)NC(=O)[C@H](Cc1c[nH]c2ccccc12)NC(=O)[C@H](CCCCN)NC(C)=O)[C@@H](C)O)[C@@H](C)O)C(C)C)[C@@H](C)O)C(=O)N[C@@H](CO)C(=O)N[C@@H](CO)C(N)=O; assay = broth dilution; system = ATCC 25923, Mueller-Hinton broth; conditions = 24 h, 37 °C; MIC = 8 µg/mL
Compound = CCn1cc(C(=O)NCCCCCC(=O)N[C@@H](CCCNC(=N)N)C(=O)N[C@@H](CCCNC(=N)N)C(=O)N[C@@H](Cc2c[nH]c3ccccc23)C(=O)N[C@@H](CCC(N)=O)C(=O)N[C@@H](Cc2c[nH]c3ccccc23)C(=O)N[C@@H](CCCNC(=N)N)C(N)=O)c(=O)c2cc3c(cc21)OCO3; assay = broth microdilution; system = ATCC 25923; conditions = 24 h, 37 °C; MIC = 37 µM and 39 µM
Compound = CC[C@H](C)[C@H](NC(=O)[C@H](CCC(N)=O)NC(=O)[C@@H]1CCCN1C(=O)[C@@H](NC(=O)[C@@H](NC(=O)[C@H](Cc1ccccc1)NC(=O)[C@H](C)NC(=O)[C@H](C)NC(=O)[C@H](CC(C)C)NC(=O)[C@H](CCCNC(=N)N)NC(=O)[C@H](C)NC(=O)[C@H](CC(C)C)NC(=O)[C@H](CC(C)C)NC(=O)CNC(=O)[C@@H](NC(=O)[C@@H](N)Cc1ccccc1)C(C)C)C(C)C)[C@@H](C)CC)C(=O)N[C@H](C(=O)N[C@@H](CCCCN)C(=O)N[C@@H](CCCNC(=N)N)C(=O)N[C@@H](Cc1ccccc1)C(=O)N[C@@H](CCC(N)=O)C(=O)N[C@@H](CCCCN)C(=O)N[C@@H](CCCCN)C(=O)N[C@@H](CC(N)=O)C(N)=O)C(C)C; assay = broth microdilution; system = MRSA ATCC 33592; MIC = 1.56 to 3.12 µM
Compound = CCCCCCSCC1OC(OC2C(N)CC(N)C(OC3OC(CN)C(O)CC3N)C2O)C(O)C(N)C1O (stereo not shown); system = NorA; MIC = > 150 µg/mL
Compound = CC(C)C[C@H](NC(=O)[C@H](C)NC(=O)CNC(=O)[C@@H](NC(=O)[C@@H](NC(=O)[C@H](CCCCN)NC(=O)[C@H](CCCCN)NC(=O)[C@H](CC(C)C)NC(=O)[C@H](CC(C)C)NC(=O)[C@H](CCCCN)NC(=O)[C@H](CC(C)C)NC(=O)[C@H](CC(C)C)NC(=O)[C@@H](N)CCCCN)C(C)C)C(C)C)C(=O)NCC(N)=O; system = ATCC 43300, CAMHB; conditions = 18 h, 37 °C; MIC = 22 µM
Compound = CC(C)C[C@@H]1NC(=O)[C@H](C)NC(=O)[C@H](NC(=O)[C@@H](N)COC(=O)[C@@H](C)NC(=O)[C@@H](CC(C)C)NC(=O)[C@@H](N)Cc2ccccc2)[C@H](C(N)=O)OC(=O)[C@H](CC(C)C)NC1=O; system = MRSA ATCC 700698; conditions = TFA salt; MIC = > 32 µg/mL
Compound = CN1C(=O)[C@@H]2NC(=O)[C@@H]3NC(=O)[C@@H](c4ccc(O)cc4)NC(=O)[C@H](NC(=O)C(NCCCCCCB(O)O)c4ccc(O)cc4)Cc4c[nH]c5cc(ccc45)-c4cc3cc(c4O)Oc3ccc(cc3)C[C@H]1C(=O)N[C@@H](C(=O)OCCCCCCB(O)O)c1ccc(O)c(c1)Oc1ccc2cc1 (stereo partly shown); system = ATCC 33591 MRSA, Mueller-Hinton broth; MIC = > 128 µg/mL
Compound = CCCCCCCCCCCCCCCC(=O)N[C@@H](CCCCN)C(=O)N1CCC[C@H]1C(=O)N[C@H](C(N)=O)C(C)C; assay = broth microdilution; system = MSSA ATCC 29213; conditions = Mueller-Hinton broth; MIC = 11.4 µM
